# Measurements from different studies.
# Protocols differ between the studies behind these lines. “And” joins repeats or separate records; there may be more than shown.
# UniProt Q9HC35, sequence (whole entry, looked up): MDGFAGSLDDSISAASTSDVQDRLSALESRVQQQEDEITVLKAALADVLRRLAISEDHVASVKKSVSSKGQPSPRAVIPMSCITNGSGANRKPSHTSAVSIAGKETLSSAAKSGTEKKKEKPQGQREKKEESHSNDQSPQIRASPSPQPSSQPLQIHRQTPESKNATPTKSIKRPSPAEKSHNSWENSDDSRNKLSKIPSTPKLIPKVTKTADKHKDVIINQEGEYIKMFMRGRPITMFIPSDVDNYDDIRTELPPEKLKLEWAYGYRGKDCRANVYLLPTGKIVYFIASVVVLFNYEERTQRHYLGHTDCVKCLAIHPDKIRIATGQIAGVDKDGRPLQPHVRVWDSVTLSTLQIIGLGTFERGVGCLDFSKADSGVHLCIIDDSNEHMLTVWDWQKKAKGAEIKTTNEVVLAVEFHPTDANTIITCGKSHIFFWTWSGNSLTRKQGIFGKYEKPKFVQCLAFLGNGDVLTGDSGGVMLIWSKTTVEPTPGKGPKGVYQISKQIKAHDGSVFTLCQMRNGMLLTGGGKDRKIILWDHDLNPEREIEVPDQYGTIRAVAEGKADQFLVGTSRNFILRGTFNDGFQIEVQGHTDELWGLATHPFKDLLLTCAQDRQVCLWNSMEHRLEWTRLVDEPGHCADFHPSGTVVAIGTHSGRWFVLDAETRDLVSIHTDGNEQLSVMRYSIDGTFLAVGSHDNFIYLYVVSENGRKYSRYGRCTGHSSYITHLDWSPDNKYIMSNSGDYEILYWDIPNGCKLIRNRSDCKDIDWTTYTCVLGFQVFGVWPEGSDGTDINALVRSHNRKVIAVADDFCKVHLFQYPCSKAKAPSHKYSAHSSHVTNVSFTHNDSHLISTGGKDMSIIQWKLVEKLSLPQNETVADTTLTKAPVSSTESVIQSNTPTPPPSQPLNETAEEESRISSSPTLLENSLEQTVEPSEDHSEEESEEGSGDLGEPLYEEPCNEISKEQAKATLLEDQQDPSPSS
# UniProt Q16774, sequence (whole entry, looked up): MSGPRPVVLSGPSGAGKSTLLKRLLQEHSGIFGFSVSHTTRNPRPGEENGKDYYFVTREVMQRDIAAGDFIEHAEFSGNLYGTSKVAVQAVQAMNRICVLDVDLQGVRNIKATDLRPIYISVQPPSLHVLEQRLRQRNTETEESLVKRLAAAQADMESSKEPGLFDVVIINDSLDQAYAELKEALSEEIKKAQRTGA
# UniProt Q9UM73, sequence (whole entry, looked up): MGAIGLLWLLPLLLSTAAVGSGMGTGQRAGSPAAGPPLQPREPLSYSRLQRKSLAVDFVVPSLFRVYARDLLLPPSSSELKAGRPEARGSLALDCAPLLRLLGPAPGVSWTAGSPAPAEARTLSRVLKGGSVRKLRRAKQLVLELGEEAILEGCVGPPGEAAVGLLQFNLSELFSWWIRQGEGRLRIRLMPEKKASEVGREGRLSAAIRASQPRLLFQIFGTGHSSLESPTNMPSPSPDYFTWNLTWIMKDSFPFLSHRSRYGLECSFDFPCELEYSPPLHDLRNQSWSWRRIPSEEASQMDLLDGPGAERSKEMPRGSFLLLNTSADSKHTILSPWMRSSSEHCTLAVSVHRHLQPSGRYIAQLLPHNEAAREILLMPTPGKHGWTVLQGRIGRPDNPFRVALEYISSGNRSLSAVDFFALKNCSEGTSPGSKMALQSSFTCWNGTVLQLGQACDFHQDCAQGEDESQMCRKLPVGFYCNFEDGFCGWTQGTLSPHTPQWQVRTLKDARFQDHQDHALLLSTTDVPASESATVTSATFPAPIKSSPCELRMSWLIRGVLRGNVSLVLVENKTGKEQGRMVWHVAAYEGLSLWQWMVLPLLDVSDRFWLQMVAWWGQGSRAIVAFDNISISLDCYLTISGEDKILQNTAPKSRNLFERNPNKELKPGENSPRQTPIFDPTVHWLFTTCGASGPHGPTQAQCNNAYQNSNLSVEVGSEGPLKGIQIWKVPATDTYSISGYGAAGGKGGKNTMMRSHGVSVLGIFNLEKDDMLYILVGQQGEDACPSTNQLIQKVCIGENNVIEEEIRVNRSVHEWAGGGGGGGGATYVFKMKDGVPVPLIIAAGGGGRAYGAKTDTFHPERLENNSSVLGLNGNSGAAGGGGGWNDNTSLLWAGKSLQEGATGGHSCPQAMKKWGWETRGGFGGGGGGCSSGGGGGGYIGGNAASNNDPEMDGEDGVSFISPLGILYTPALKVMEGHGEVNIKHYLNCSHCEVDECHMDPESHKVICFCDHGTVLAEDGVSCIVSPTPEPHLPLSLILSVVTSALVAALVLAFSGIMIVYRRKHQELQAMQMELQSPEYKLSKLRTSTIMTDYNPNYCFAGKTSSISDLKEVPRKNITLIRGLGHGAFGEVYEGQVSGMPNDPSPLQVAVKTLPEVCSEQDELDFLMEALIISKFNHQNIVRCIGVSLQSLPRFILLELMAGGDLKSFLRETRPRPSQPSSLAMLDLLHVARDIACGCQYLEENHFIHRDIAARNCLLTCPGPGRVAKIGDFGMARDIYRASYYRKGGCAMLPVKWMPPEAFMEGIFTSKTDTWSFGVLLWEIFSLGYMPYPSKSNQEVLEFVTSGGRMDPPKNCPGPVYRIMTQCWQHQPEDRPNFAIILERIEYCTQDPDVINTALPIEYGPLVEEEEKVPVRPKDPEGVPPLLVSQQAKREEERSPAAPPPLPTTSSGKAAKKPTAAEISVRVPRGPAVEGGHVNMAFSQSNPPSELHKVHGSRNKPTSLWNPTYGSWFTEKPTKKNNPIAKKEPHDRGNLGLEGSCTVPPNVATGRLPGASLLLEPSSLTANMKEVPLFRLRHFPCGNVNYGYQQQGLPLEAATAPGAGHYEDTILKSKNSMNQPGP
# UniProt P11388, sequence (whole entry, looked up): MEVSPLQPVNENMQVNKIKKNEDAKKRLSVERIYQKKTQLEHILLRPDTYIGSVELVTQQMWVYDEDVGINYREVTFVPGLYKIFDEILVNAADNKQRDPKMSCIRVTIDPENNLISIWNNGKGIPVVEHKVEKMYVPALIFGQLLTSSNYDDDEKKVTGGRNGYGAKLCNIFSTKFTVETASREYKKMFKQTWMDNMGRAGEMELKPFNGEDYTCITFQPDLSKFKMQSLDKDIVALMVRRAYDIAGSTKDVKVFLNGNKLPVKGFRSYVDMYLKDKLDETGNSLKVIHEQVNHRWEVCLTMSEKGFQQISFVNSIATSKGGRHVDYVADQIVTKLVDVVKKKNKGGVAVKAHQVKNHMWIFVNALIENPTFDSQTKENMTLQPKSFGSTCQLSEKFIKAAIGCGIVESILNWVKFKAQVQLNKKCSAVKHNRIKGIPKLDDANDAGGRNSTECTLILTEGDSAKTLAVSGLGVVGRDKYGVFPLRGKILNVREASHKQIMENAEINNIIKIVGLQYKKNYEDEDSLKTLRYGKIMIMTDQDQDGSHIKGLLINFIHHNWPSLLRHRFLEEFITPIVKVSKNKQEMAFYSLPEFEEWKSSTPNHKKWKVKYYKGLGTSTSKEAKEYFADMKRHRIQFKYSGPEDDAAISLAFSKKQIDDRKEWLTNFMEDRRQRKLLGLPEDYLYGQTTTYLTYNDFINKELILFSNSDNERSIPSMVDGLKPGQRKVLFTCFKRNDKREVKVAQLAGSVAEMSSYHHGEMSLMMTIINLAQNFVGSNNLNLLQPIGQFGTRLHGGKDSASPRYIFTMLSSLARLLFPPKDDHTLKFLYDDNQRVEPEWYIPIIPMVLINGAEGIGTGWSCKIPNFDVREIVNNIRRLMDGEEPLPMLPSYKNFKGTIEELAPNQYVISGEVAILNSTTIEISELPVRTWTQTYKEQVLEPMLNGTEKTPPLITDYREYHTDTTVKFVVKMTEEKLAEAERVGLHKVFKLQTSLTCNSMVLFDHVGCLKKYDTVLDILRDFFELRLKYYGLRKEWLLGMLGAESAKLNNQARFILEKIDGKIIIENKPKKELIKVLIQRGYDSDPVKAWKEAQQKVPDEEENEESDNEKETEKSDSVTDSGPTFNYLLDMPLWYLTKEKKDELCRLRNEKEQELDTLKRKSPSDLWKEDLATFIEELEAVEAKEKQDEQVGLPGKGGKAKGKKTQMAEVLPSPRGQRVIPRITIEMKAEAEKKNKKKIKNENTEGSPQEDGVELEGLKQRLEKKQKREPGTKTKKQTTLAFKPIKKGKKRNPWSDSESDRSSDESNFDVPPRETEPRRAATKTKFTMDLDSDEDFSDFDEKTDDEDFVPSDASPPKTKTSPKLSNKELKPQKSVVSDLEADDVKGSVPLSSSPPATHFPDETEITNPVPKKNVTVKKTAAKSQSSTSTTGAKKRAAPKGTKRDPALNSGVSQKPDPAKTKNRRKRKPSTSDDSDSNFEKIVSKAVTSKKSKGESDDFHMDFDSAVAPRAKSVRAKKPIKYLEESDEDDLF
# UniProt P03146, sequence (whole entry, looked up): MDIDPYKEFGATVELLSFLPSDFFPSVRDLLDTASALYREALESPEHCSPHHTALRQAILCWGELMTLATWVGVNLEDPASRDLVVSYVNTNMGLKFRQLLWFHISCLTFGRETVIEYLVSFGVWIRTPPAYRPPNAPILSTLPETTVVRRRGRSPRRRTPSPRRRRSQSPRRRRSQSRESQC
# UniProt P23204, sequence (whole entry, unmodified, looked up): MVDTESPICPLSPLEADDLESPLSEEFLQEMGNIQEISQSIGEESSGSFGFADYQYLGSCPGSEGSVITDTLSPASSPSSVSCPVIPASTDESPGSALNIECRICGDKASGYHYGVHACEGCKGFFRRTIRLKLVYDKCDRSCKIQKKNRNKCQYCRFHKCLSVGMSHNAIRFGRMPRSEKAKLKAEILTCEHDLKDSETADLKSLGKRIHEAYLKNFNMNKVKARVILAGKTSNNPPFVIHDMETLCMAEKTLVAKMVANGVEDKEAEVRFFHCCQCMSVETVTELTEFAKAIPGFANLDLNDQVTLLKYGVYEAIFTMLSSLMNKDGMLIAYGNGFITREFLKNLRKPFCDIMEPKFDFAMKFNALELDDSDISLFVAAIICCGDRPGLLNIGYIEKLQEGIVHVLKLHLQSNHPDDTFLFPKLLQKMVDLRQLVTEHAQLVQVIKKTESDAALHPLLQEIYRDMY
Structure (SMILES),target,test,system,conditions,how to read,endpoint,result
O=c1nc(SCc2cc(F)cc(C(F)(F)F)c2)nc(SCc2ccc3sccc3c2)[nH]1,"DNA topoisomerase 2-alpha (TOP2A, Homo sapiens, UniProt P11388)",ATPase activity,,"7.8 µM, with: ATP 0.5 mM",,ATP hydrolysis rate,1.11 µM/min and 1.56 µM/min
CCOC(=O)C1=C(CN2CCC[C@@H]2C(=O)Nc2ccc(B(O)O)cc2)NC(c2nccs2)=N[C@H]1c1ccc(F)cc1Br,"Capsid protein (C, Hepatitis B virus genotype D subtype ayw, UniProt P03146)",immunoblot,"HepG2 expressing HA-HBc, Hepatitis B virus","concentration not given, 3 days, non-toxic concentrations",,intracellular capsid protein level,decreased
NCCCS(=O)(=O)O,"Sodium- and chloride-dependent taurine transporter (SLC6A6, Homo sapiens, UniProt P31641, Y138A)","binding, microscale thermophoresis",,"488 nM, room temperature, with: 50 nM labelled protein",higher = more binding,normalised MST signal,0.111
CC[C@H](C)[C@H](NC(=O)[C@H](Cc1ccccc1)NC(=O)[C@H](CCC(=O)O)NC(=O)[C@H](CCCNC(=N)N)NC(=O)[C@H](C)NC(=O)[C@H](C)NC(=O)[C@H](CCC(N)=O)NC(=O)[C@H](CCC(=O)O)NC(=O)[C@H](CCC(=O)O)NC(=O)[C@H](CC(C)C)NC(=O)[C@H](Cc1ccc(O)cc1)NC(=O)[C@H](CO)NC(=O)[C@H](CO)NC(=O)[C@@H](NC(=O)[C@H](CC(=O)O)NC(=O)[C@H](CO)NC(=O)[C@@H](NC(=O)[C@H](Cc1ccccc1)NC(=O)[C@@H](NC(=O)CNC(=O)[C@H](CCC(=O)O)NC(=O)[C@H](C)NC(=O)CCc1cnc[nH]1)[C@@H](C)O)[C@@H](C)O)C(C)C)C(=O)N[C@@H](C)C(=O)N[C@@H](Cc1c[nH]c2ccccc12)C(=O)N[C@@H](CC(C)C)C(=O)N[C@H](C(=O)N[C@@H](CCCCNC(=O)COCCOCCNC(=O)COCCOCCNC(=O)CC[C@H](NC(=O)CCCCCCCCCCCCCCCCC(=O)O)C(=O)O)C(=O)NCC(=O)N[C@@H](CCCNC(=N)N)C(=O)N[C@@H](CCCCNc1c(NCCCCCN(O)C(=O)CCC(=O)NCCCCCN(O)C(=O)CCC(=O)NCCCCCN(O)C(C)=O)c(=O)c1=O)C(=O)NCC(=O)NCC(=O)N[C@@H](CO)C(=O)N[C@@H](CCCCNc1c(NCCCCCN(O)C(=O)CCC(=O)NCCCCCN(O)C(=O)CCC(=O)NCCCCCN(O)C(C)=O)c(=O)c1=O)C(=O)O)C(C)C,"Glucagon-like peptide 1 receptor (GLP1R, Homo sapiens, UniProt P43220)","agonist, CRE luciferase reporter",BHK cells,"Zr-loaded DFO conjugate, with: 0% HSA",relative to: parent peptide,fold potency loss,3
CCCCCCCCCCCC(=O)O,"Peroxisome proliferator-activated receptor alpha (Ppara, Mus musculus, UniProt P23204, F272I)",far-UV circular dichroism,,concentration not given,,secondary structure change,no effect
COc1cc(N2CCC(N3CCN(C)CC3)CC2)ccc1Nc1ncc(Cl)c(Nc2ccccc2P(C)(C)=O)n1,"ALK tyrosine kinase receptor/Echinoderm microtubule-associated protein-like 4 (Homo sapiens, UniProt Q9HC35+Q9UM73)","degrader, immunoblotting, item: ALK tyrosine kinase receptor/Echinoderm microtubule-associated protein-like 4",Ba/F3 EML4-ALK,"concentration not given, 0.5 h, unit not given",relative to: untreated,protein level,1.07 and 1.09 and 0.986
CC1(C)CC2(C)OC(=O)NC2(C)c2ccccc21 (stereo not drawn),"Transcription intermediary factor 1-alpha, PHD-bromodomain (TRIM24, Homo sapiens, UniProt O15164)","binding, affinity selection mass spectrometry",,,relative to: other proteins in batch,fold enrichment,0.788
O=S(=O)(O)O,"GUK1 (Homo sapiens, UniProt Q16774)","enzyme activity, NADH-coupled",,"10 mM, with: ATP 125 µM",,reaction velocity,0.0365 µM/s and 0.0293 µM/s and 0.0411 µM/s
CC(=O)N[C@H]1[C@H]([C@H](O)[C@H](O)CO)O[C@@](OC[C@H]2O[C@@H](Oc3ccc([N+](=O)[O-])cc3)[C@H](O)[C@@H](O)[C@H]2O)(C(=O)O)C[C@@H]1O,"Sialidase-2 (Homo sapiens, UniProt Q9Y3R4)",substrate,,"0.3 mM, 30 min, pH 5.0, 37 °C",,sialic acid release,22%

# Repeated from above:
Structure (SMILES),target,test,system,conditions,how to read,endpoint,result
NCCCS(=O)(=O)O,"Sodium- and chloride-dependent taurine transporter (SLC6A6, Homo sapiens, UniProt P31641, Y138A)","binding, microscale thermophoresis",,"488 nM, room temperature, with: 50 nM labelled protein",higher = more binding,normalised MST signal,0.111
